Published values from different studies.
A part holds a random share of what one study measured.
Sequence of UniProt P42684 (whole entry, looked up): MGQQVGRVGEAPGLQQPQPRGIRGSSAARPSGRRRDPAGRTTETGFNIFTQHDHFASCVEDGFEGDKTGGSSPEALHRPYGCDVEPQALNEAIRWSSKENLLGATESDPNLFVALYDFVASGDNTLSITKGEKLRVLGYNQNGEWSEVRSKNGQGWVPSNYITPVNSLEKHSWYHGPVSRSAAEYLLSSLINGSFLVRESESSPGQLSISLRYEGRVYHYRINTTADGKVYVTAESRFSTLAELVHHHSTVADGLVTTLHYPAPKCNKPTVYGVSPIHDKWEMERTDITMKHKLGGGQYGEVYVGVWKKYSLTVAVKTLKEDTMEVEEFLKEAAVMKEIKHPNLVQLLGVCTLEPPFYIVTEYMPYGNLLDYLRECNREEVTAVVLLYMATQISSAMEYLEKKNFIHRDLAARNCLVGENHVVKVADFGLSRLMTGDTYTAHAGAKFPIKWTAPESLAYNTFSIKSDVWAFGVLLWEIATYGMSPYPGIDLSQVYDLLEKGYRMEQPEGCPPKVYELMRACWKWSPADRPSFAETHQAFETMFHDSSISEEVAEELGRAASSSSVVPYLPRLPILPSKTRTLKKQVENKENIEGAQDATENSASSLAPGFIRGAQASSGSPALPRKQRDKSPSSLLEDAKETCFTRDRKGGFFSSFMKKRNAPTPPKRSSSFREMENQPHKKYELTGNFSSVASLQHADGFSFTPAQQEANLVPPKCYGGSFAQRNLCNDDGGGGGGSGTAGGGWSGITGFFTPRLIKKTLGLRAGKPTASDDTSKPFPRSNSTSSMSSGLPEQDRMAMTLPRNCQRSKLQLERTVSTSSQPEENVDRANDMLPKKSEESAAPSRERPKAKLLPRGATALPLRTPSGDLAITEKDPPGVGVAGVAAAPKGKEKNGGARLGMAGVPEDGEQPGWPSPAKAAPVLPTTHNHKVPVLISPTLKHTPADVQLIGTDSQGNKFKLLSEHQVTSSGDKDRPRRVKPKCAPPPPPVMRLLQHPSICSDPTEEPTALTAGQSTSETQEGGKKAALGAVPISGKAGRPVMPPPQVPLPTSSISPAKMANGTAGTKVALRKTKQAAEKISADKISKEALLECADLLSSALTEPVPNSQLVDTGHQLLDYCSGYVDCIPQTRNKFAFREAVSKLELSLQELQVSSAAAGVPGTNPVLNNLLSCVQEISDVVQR
Sequence of UniProt P42685 (whole entry, looked up): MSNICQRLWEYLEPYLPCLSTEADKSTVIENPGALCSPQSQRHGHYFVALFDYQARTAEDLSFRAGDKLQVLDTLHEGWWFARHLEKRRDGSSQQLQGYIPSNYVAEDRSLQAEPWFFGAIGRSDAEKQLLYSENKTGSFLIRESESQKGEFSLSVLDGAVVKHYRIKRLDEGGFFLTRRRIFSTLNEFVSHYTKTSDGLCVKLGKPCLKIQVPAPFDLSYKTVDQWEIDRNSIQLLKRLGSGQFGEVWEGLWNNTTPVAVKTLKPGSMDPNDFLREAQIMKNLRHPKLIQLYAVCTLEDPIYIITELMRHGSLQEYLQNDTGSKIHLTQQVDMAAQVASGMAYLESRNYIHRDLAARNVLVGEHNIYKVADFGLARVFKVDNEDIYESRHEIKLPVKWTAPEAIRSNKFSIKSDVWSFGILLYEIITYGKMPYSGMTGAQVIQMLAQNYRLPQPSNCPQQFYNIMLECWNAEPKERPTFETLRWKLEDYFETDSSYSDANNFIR
Sequence of UniProt P17948 (whole entry, looked up): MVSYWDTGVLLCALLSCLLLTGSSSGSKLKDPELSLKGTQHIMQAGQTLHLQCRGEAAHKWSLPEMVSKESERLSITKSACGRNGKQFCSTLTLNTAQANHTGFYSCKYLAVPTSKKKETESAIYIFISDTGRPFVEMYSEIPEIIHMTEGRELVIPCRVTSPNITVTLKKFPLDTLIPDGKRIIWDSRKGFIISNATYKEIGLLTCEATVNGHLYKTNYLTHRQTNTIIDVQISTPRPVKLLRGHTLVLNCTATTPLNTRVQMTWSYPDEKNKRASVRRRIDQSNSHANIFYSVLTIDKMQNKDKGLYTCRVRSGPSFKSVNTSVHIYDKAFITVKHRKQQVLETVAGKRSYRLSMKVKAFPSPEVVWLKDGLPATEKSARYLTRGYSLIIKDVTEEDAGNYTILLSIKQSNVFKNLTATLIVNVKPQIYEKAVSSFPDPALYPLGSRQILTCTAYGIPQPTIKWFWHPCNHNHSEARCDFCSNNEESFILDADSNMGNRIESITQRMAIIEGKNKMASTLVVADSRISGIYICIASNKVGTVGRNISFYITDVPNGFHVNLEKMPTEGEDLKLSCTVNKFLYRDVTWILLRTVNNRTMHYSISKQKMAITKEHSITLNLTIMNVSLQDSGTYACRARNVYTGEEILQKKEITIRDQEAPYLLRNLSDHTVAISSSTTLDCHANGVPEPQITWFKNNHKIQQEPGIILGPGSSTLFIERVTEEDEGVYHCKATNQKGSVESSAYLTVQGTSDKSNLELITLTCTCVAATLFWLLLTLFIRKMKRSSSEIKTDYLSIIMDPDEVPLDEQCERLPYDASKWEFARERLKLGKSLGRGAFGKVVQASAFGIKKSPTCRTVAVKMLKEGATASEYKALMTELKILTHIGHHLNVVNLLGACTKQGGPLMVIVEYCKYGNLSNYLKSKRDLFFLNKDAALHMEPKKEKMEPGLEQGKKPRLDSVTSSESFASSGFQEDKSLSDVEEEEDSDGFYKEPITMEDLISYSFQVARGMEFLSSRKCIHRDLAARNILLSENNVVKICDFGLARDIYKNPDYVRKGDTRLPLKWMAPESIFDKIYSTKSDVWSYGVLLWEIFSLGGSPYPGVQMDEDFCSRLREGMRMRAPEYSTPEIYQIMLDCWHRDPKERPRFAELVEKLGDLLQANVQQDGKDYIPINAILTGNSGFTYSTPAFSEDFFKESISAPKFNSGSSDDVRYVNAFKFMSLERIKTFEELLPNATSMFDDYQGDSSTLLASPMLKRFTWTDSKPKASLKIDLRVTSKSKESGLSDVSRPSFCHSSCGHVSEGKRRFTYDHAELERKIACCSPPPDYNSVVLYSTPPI
Sequence of UniProt P27361 (whole entry, looked up): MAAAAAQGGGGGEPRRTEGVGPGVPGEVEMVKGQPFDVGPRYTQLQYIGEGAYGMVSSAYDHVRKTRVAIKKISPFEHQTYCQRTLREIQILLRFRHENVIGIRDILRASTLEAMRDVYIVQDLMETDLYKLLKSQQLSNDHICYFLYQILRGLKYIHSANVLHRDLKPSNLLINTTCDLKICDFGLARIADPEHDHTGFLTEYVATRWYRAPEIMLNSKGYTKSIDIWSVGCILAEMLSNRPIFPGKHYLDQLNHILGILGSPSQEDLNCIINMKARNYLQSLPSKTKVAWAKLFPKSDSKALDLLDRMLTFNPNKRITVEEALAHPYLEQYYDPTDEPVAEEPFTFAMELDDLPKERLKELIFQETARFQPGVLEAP
Sequence of UniProt P49841 (whole entry, looked up): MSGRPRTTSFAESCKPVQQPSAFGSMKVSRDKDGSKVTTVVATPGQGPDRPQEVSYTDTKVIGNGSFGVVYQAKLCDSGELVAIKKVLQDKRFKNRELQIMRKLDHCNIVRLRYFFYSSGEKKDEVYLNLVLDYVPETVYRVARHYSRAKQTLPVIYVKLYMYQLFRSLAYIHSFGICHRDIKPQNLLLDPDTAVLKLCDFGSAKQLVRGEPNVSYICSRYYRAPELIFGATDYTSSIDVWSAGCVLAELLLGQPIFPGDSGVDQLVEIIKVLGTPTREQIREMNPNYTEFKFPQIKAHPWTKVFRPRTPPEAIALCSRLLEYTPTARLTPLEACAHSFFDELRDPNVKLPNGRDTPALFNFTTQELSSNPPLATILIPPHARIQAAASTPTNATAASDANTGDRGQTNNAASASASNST
Sequence of UniProt P36896 (whole entry, looked up): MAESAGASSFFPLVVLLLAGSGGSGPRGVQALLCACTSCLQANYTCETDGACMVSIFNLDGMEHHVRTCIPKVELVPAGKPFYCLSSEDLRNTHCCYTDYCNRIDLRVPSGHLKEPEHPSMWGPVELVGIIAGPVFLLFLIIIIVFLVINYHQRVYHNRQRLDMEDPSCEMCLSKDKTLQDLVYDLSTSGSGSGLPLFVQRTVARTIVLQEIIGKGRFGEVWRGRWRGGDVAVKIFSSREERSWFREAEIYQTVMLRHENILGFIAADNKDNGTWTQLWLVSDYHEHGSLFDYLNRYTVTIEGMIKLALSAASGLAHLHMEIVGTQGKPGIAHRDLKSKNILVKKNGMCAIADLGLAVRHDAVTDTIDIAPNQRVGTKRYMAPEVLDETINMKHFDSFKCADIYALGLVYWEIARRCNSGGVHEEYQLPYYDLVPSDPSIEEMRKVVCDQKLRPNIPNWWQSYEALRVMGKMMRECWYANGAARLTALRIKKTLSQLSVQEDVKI
Sequence of UniProt P06239 (whole entry, looked up): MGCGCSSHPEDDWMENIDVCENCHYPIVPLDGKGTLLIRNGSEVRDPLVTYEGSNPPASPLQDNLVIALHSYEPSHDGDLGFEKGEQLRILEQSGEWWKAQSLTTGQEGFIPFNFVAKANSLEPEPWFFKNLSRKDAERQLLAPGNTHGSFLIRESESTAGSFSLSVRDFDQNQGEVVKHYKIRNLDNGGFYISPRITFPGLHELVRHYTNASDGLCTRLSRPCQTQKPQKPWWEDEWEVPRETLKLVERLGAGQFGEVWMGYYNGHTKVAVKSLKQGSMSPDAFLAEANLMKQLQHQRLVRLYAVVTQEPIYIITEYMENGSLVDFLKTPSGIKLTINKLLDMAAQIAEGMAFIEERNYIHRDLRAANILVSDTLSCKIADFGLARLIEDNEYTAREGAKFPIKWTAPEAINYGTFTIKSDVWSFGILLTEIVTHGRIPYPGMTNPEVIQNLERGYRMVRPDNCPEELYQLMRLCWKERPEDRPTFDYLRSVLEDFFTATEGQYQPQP

Sample 1 — cell line: A-375; tested at: 100 µM; time: 18 h; quantity: viability
Compound = CO/N=C1\CN(c2nc3c(cc2F)c(=O)c(C(=O)O)cn3C2CC2)CC1CN (stereo not shown); result = 76.1%
Compound = O=C(O)CCc1nc(-c2ccccc2)c(-c2ccccc2)o1; result = 87.2%
Compound = CC1CNc2c(cccc2S(=O)(=O)N[C@@H](CCCNC(=N)N)C(=O)N2CC[C@@H](C)C[C@@H]2C(=O)O)C1 (stereo partly shown); result = 79.7%
Compound = CC(=O)Nc1c(I)c(NC(C)=O)c(I)c(C(=O)O)c1I; result = 89.8%
Compound = C[C@]12CCC(=O)C=C1CC[C@@H]1[C@@H]2[C@@H](O)C[C@@]2(C)[C@H]1CC[C@]2(O)C(=O)CO; result = 106%
Compound = CS(=O)(=O)n1cc2c(n1)CN([C@H]1CO[C@H](c3cc(F)ccc3F)[C@@H](N)C1)C2; result = 84.3%
Compound = O=C(OOC(=O)c1ccccc1)c1ccccc1; result = 90.3%
Compound = C[C@@H](O)[C@H]1C(=O)N2C(C(=O)O)=C(S[C@@H]3CN[C@H](CNS(N)(=O)=O)C3)[C@H](C)[C@H]12; result = 105%

Sample 2 — effect on: enzyme activity; mode: inhibitor; tested at: 0.5 µM; reference: control; quantity: remaining activity
SMILES: CN(C)C[C@H]1CCn2c(c(C3=C(c4cn(C)c5ccccc45)C(=O)NC3=O)c3ccccc32)C1
target = Tyrosine-protein kinase ABL2 (ABL2, Homo sapiens, UniProt P42684); result = 96.3%
target = Serine/threonine-protein kinase TAO2 (TAOK2, Homo sapiens, UniProt Q9UL54); result = 87.7%
target = Serine/threonine-protein kinase Nek6 (NEK6, Homo sapiens, UniProt Q9HC98); result = 94.6%
target = Tyrosine-protein kinase Lck (LCK, Homo sapiens, UniProt P06239); result = 96.5%
target = Glycogen synthase kinase-3 beta (GSK3B, Homo sapiens, UniProt P49841); result = 11.2%
target = Angiopoietin-1 receptor (TEK, Homo sapiens, UniProt Q02763); result = 98.4%
target = Activin receptor type-1B (ACVR1B, Homo sapiens, UniProt P36896); result = 98.2%
target = Serine/threonine-protein kinase Nek1 (NEK1, Homo sapiens, UniProt Q96PY6); result = 105%
target = Tyrosine-protein kinase FRK (FRK, Homo sapiens, UniProt P42685); result = 103%
target = Serine/threonine-protein kinase ULK3 (ULK3, Homo sapiens, UniProt Q6PHR2); result = 88.9%
target = Casein kinase I isoform gamma-3 (CSNK1G3, Homo sapiens, UniProt Q9Y6M4); result = 104%
target = Mitogen-activated protein kinase 3 (MAPK3, Homo sapiens, UniProt P27361); result = 102%
target = Macrophage-stimulating protein receptor (MST1R, Homo sapiens, UniProt Q04912); result = 98.3%
target = Serine/threonine-protein kinase ULK2 (ULK2, Homo sapiens, UniProt Q8IYT8); result = 105%
target = Rhodopsin kinase GRK7 (GRK7, Homo sapiens, UniProt Q8WTQ7); result = 40%

Sample 3 — species: human; sample: microsomes or S9; tested at: 2 µM; time: 0.5 h; quantity: remaining compound
Compound = O=c1c2cnn(-c3ccc(F)cc3)c2ncn1Cc1cccnc1; result = > 100%
Compound = CN(C)CCCC(C#N)c1cccc2ccccc12 (stereo not shown); result = > 99%
Compound = CCCC(NC(=O)c1c2c(nc3ccccc13)C(=O)N(C1CCCCC1)C2)c1cccs1 (stereo not shown); result = 85.3%
Compound = CN(CC(=O)Nc1nc2c(F)cc(F)cc2s1)S(C)(=O)=O; result = 46.7%
Compound = COc1ccc([C@@H](C)C(=O)c2ccc(O)cc2O)cc1; result = 64.9%
Compound = COc1ccc2c(/C=C3/C(=O)c4ccccc4S(=O)(=O)N3C)c[nH]c2c1; result = 40.1%
Compound = O=C(CC1NCCNC1=O)OCCc1ccccc1 (stereo not shown); result = 69.7%
Compound = O=c1[nH]c2ccc(NCc3ccc(-c4ccccc4)cc3)cc2[nH]1; result = 87.5%

Sample 4 — effect on: cell-free assay; method: competition with immobilised ligand; tested at: 1 µM; quantity: remaining binding
SMILES: CN(c1ccnc(CNc2nc(Nc3ccc4c(c3)CC(=O)N4)ncc2C(F)(F)F)n1)S(C)(=O)=O
target = Tyrosine-protein kinase ABL2 (ABL2, Homo sapiens, UniProt P42684); result = 75%
target = Vascular endothelial growth factor receptor 1 (FLT1, Homo sapiens, UniProt P17948); result = 69%
target = Activin receptor type-2A (ACVR2A, Homo sapiens, UniProt P27037); result = 100%
target = MAP kinase-activated protein kinase 2 (MAPKAPK2, Homo sapiens, UniProt P49137); result = 100%
target = Ephrin type-A receptor 1 (EPHA1, Homo sapiens, UniProt P21709); result = 86%
target = Dual serine/threonine and tyrosine protein kinase (DSTYK, Homo sapiens, UniProt Q6XUX3); result = 53%

For quick reference, copied from above (sample 2):
target = Serine/threonine-protein kinase ULK3 (ULK3, Homo sapiens, UniProt Q6PHR2); result = 88.9%
target = Rhodopsin kinase GRK7 (GRK7, Homo sapiens, UniProt Q8WTQ7); result = 40%
target = Tyrosine-protein kinase FRK (FRK, Homo sapiens, UniProt P42685); result = 103%
target = Angiopoietin-1 receptor (TEK, Homo sapiens, UniProt Q02763); result = 98.4%
